Assay results of several laboratories.
Each numbered part is a random draw from the data of one study; scales do not carry over between parts. Positions count from the first letter of the parent shown.

Study 1
Target: Max dimerization protein 1, bHLH-zipper, MAX partner unstated (MXD1, Homo sapiens, UniProt Q05195, residues 56-136)
Method: protein-binding microarray
Form: double-stranded DNA, one strand shown
Medium: in vitro
Concentration: not given
Notes: k-mer, scored over probes, only values ≥0.25
Direction: higher = stronger binding
Construct (chain): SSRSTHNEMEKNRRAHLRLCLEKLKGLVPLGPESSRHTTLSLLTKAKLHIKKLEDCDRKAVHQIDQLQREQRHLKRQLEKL
`CGTGTGGA` has an E-score of 0.258.
With `ACATGACA` the E-score was 0.291.
With `TCGGGGCA` the E-score was 0.251.
`CACGTGCG` has an E-score of 0.494.
`TCGTGTCA` has an E-score of 0.271.
For `GCACATGC`, the E-score was 0.46.
With `TGTTAACA` the E-score was 0.273.
`AAGCACGT` has an E-score of 0.421.
`CCCCAACC` gave an E-score of 0.354.
`CACATGGG` gave an E-score of 0.476.
`CACGCTCC` has an E-score of 0.318.
`CACACGAG` gave an E-score of 0.416.

Study 2
Target: CCNB1, cyclin fold, Cln2 fusion (human)
Method: yeast growth competition, sequencing
Medium: yeast
Notes: weak parent motif
Relative to: not given
Direction: higher = stronger binding
Parent: GMNC docking peptide (human); KNAKRNLSSEFAN
Under “normalised enrichment score”, `KNAKANLSSEFAN [R5A]` is recorded as 0.188.
`KNAKRNYSSEFAN [L7Y]` — result for “normalised enrichment score”: 0.13.
`KNAKRNISSEFAN [L7I]` — result for “normalised enrichment score”: 0.372.
For `KNAKRNLSFEFAN [S9F]`, “normalised enrichment score” read 0.101.
`KNAKRNLISEFAN [S8I]`: “normalised enrichment score” -0.0107.
`KNAKRNLKSEFAN [S8K]`: “normalised enrichment score” 0.443.
`KNAKRNESSEFAN [L7E]` — result for “normalised enrichment score”: 0.0445.
`KNAKRNLSSMFAN [E10M]`: “normalised enrichment score” -0.0746.
Under “normalised enrichment score”, `KNAKRNLSSEQAN [F11Q]` is recorded as 0.115.
`KNAKRNLSSEFPN [A12P]` — result for “normalised enrichment score”: 0.246.
For `KNNKRNLSSEFAN [A3N]`, “normalised enrichment score” read 0.285.

Study 3
Target: Centromere-binding protein 1, full length, His-tagged (CBF1, Saccharomyces cerevisiae, UniProt P17106, residues 1-351)
UniProt P17106, sequence (whole entry, looked up): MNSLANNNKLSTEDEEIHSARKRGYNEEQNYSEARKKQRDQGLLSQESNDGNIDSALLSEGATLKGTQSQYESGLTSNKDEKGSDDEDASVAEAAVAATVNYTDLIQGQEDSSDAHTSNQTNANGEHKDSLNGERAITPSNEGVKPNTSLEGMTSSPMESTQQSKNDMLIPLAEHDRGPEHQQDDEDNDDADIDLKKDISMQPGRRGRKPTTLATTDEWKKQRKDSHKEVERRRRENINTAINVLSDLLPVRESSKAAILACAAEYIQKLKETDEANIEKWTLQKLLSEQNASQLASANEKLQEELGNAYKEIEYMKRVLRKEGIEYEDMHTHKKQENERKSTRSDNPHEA
Method: competition protein-binding microarray
Form: double-stranded DNA, one strand shown
Medium: in vitro
Concentration: 2 µM
Notes: whole 60-bp probe, lowest competitor level
With: Pho4 competitor, 0.05 µM
Direction: higher = stronger binding
Shared flanks, not repeated: … GTCTTGATTCGCTTGACGCTGCTG
For `AGCTTGAGCCAAGACATCGTGACAAACAATAATAGG`, the fluorescence intensity was 291 a.u.
For `AGAATAATGTAAGGTACCGTGGGTACCGTACCATCA`, the fluorescence intensity was 54 a.u.
`AGATCAATTATCCGAAGCGGGTCCCAACCCGGAAAT` has a fluorescence intensity of 53.9 a.u.
With `TTGTCTCATTACGTTCAGGTGACTACATTATCGAGC` the fluorescence intensity was 547 a.u.
`TGCGCAACAACTTGTCACCATACTTTATGTCTAGAA` gave a fluorescence intensity of 83 a.u.
`TCTCTCCATTCGGTTGATGTGATGCTTTGCTGTAAA` gave a fluorescence intensity of 58.8 a.u.
`TTCTAGTTATTGTTGCTCGTGCAAAGATGTGCTGTG` has a fluorescence intensity of 140 a.u.
The fluorescence intensity of `GAGTTTGTTTTCCTTCACATGATGAAGAAGGTTTGA` is reported as 287 a.u.
The fluorescence intensity of `CGGGGTTAAGTTTGCATTGTGGGTGGCTTGCAGCAG` is reported as 74.6 a.u.
With `CGGGTGAGGGGTTTGCACGTGACTCGGGTGCGGGTA` the fluorescence intensity was 7350 a.u.
The fluorescence intensity of `CTAACGAAGGTTTGTCACGTAACTTACAAGCCAAGT` is reported as 105 a.u.
`TTGTGGTGAAGCCGTTTTGTGATGGGTGTGGCGCGA` has a fluorescence intensity of 83.5 a.u.
`GCTCAAATAAAAGGACACGTGGTCAACCCTCAATCA` has a fluorescence intensity of 3870 a.u.
With `AAAGCGGTAATTTGTCACAGTACTTCACATATCTAT` the fluorescence intensity was 85.7 a.u.
`CGATGTTGAGGAAGTCCTGTGATATTTCAAATGTGG` has a fluorescence intensity of 110 a.u.
`ATATGTGTGCGACGACACATGATAATATGGCATGCA` gave a fluorescence intensity of 299 a.u.

Further values, each from its own experiment
`PhoQ, residues 284 288 289 292 302 303 GNNTDL` has a fold induction of 5.31 (PhoP, residues 12 14 15 18 19 SGWQI (Escherichia coli, UniProt P23836); Sort-seq, item: YFP reporter; E. coli; PhoQ-PhoP variant library, with: 10 µM Mg2+; relative to: high Mg2+ state, higher = stronger signaling).
